{"data": "Assay results of several laboratories", "note": "Values joined by “and” are separate records of one study, mostly repeats; a detail may differ. ± gives the spread as reported."}
{"SMILES": "COc1ccc(NC(=O)c2ccc3[nH]c(-c4ccc(N(C)C)cc4)nc3c2)cn1", "system": "CT26, BALB/c mice, subcutaneous syngeneic graft", "setting": "dose not given, day 11", "quantity": "tumour volume", "result": "349 mm3 and 486 mm3 and 392 mm3 and 585 mm3 and 470 mm3"}
{"SMILES": "CCCCCCCC(=O)[O][Pt]([Cl])([Cl])[O]C(=O)CCCCCCC.N.N", "system": "A549/DDP xenograft, female nude mice", "setting": "dose not given, together with: survivin siRNA 0.5 mg/kg", "quantity": "tumour volume doubling time", "result": "10.2 days"}
{"SMILES": "CN1CCCNC(=O)c2cccc(c2)C(=O)NCCCN(C)CCCNc2cccc3c2C(=O)c2cccc(c2C3=O)NCCC1", "system": "KSN/Slc nude mice, SAS xenograft", "setting": "dose not given, day 4, 96 h", "quantity": "tumour volume", "result": "156 mm3 and 165 mm3 and 222 mm3 and 228 mm3 and 86.5 mm3"}
{"SMILES": "COc1ccc(OCc2ccc([N+](=O)[O-])cc2)cc1-c1c[nH]c2ncc(-c3cncc(C(=O)N(C)C)c3)cc12", "system": "NSG mice, K562 xenograft", "setting": "ip, 0.0268 mmol/kg once daily, 16 days", "quantity": "tumour growth inhibition", "result": "57 ± 3.8%"}
{"SMILES": "CCCCCC(=O)[O][Pt]([Cl])([Cl])[O]C(=O)CCCCC.N.N", "system": "A549/DDP xenograft, female nude mice", "setting": "dose not given, together with: survivin siRNA 0.5 mg/kg", "quantity": "tumour volume doubling time", "result": "7 days"}
{"SMILES": "COc1c(Cl)cccc1Nc1c(-c2ccncc2C#C[C@@]2(C)CCCN2C(=O)/C=C/CN(C)C)[nH]c2c1C(=O)NCC2", "system": "NCI-H2073 parental xenograft (EGFR wild-type), BALB/c nude mice", "setting": "25 mg/kg once daily, 21 days", "quantity": "tumour growth inhibition", "result": "48.9%"}
{"SMILES": "COc1cc(N2CCN(C(=O)C3CCCN3)CC2)ccc1Nc1ncc(Cl)c(Nc2ccccc2P(C)(C)=O)n1 (centres unmarked)", "system": "nude mice, NCI-H3122 xenograft", "setting": "oral, 25 mg/kg every two days, day 15", "quantity": "tumour volume", "result": "292 mm3 and 811 mm3 and 278 mm3 and 86.8 mm3 and 250 mm3"}
{"SMILES": "COc1ccc(O)cc1-c1c[nH]c2ncc(-c3cncc(C(=O)N(C)C)c3)cc12", "system": "NSG mice, K562 xenograft", "setting": "ip, 0.0268 mmol/kg once daily, 16 days", "quantity": "tumour growth inhibition", "result": "87.5 ± 1.3%"}
{"note": "A few entries again:"}
{"SMILES": "COc1cc(N2CCN(C(=O)C3CCCN3)CC2)ccc1Nc1ncc(Cl)c(Nc2ccccc2P(C)(C)=O)n1 (centres unmarked)", "system": "nude mice, NCI-H3122 xenograft", "setting": "oral, 25 mg/kg every two days, day 15", "quantity": "tumour volume", "result": "292 mm3 and 811 mm3 and 278 mm3 and 86.8 mm3 and 250 mm3"}
